Measured values of several laboratories.
Every numbered part comes from another study and shows a few of its results, in no order.

Block 1 — technique: RNA Bind-n-Seq; molecule type: RNA; matrix: in vitro; concentration: not given; relative to: input RNA pool; direction: higher = stronger binding
Target: RING finger protein unkempt homolog, zinc fingers 1-6, GST-SBP tag (UNK, Homo sapiens, UniProt Q9C0B0, residues 30-357)
Sequence of UniProt Q9C0B0 (30-357, looked up): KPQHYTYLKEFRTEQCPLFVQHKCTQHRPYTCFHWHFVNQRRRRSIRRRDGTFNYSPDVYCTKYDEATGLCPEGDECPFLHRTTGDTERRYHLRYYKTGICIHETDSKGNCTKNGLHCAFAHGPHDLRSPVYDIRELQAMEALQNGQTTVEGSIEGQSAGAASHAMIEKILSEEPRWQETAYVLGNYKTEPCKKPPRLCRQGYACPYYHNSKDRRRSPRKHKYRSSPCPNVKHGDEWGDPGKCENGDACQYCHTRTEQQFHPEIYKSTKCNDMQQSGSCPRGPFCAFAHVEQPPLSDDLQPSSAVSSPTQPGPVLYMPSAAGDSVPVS
Notes: RNA with constant flanks, human and mouse sites, ends assumed
With `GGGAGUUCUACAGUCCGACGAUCAAGAAAUCGAGAGUCCGAGCCCAGCAUAUUGUGCCCUGUACCAUAUCCCAGCUGCUUUCUGCUACUCUGACUGAUGAAGUGUUCAGAAUUGGAGAUGUCGAGAUUUCACAGGUCACUAUUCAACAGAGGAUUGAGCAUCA` the bound/input enrichment was 0.106 ratio.
The bound/input enrichment of `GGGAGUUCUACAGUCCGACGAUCGCUAUAGUGACUCCAAAUAUUGAACCCUGUGCUUCACAGUCAUCUCAUCCUAAGGGAGAAUUGGUGCCAGAUGUCAGAAUUUCUACAAUUCAUGAUAUUCUUCAUAGUCAAGGAAAUAACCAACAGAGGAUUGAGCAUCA` is reported as 0.385 ratio.
The bound/input enrichment of `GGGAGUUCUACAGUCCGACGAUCGUAGAAUCCUGUCGAGGAAAAAAUCUUUUUUUUUCUACCAAUAUUGAUGAUGCCAUCAAAGAAGCUGAUCUUGUAUUUAUUUCUGUGAAUACUCCAACAAAAACCUAUGGAAUGGGGAAACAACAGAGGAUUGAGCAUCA` is reported as 0.168 ratio.
`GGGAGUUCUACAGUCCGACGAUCCAUAAGCAUGAUUUGGAUCUUAUAUGUAGAGCCCAUCAGGUGGUUGAAGAUGGAUAUGAAUUUUUUGCAAAGAGGCAGUUGGUCACUCUGUUUUCUGCGCCCAAUUAUUGCGGAGAGUUUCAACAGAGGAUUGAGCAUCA` has a bound/input enrichment of 0.846 ratio.
For `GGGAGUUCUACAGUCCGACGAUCGCAAAUUUUGCCAGGAACGAUGGAAAUUGUAUUCAUAUGGUAGACAAUGGGAUUGUAGAAAAACUCAUGGAUUUGCUGGACAGACACGUAGAAGACGGGAACGUGACGGUGCAGCACGCCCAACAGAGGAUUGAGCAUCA`, the bound/input enrichment was 0.317 ratio.
`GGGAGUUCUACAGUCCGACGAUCUGUCUCCACUCAGUGACGUGGGAUUUUUUUGUCUUCCUUUUGGCUUUAUUUUUAAACUGCUUUAGAUAUUACUGCUCAGUGUUUGUGAACUUUCCUAGUUCUCUAUGUUGUUAGUGCAGCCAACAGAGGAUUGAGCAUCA` gave a bound/input enrichment of 7.97 ratio.
`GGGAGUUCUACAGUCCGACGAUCAGAGCGUCCCGAGAGCACCCAUCCGUCCAGGAGAAGAAGAAGUCGACCAUCUGGCAGUUCUUCAGCCGCCUCUUCAGCUCUUCCUCCAGCCCCCCUCCGGCCAAGCGCCCCUAUCCCUCGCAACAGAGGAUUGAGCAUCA` has a bound/input enrichment of 0.281 ratio.
With `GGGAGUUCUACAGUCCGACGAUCGUGACAGACAUUAAAAUUUACCCUCAGAAAAGAACUGUAGCAGUGACAAUAAUCCCUUCUAUAGUGAAUGCCAAUCAGAUAAAAGAGCUGGUUCCAGAACUCAGUUUAGAUACUGGGACACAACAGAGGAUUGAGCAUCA` the bound/input enrichment was 0.396 ratio.

Block 2 — technique: RNA Bind-n-Seq; molecule type: RNA; matrix: in vitro; concentration: 365 nM; relative to: no-protein control; direction: higher = stronger binding
Target: RNA binding protein fox-1 homolog 2, RRM domain, GST-SBP tag (RBFOX2, Homo sapiens, UniProt O43251-10, residues 100-194)
Notes: natural RNA segment, single round, ends assumed
Construct (chain): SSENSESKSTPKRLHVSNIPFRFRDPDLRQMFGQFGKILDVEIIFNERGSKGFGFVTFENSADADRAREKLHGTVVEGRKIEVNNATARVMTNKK
`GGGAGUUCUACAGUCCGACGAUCCUGGGCAACAUGGUGAAACCCGUCUCUACCAAACAGACAAAAAGCAGCCAGGCGUGGUGGCACAUCUGUGGUCCCAGCUACUUGAGAGGCUGAGCCAGGAGGAUCGCUUGUGGAAUUCUCGGGUGCCAA` — result for “RBNS enrichment (R)”: 0.527.
Under “RBNS enrichment (R)”, `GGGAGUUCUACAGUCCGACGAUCUGUGUGGGUGUGUGUAUGUGUAUUGGGGGUUUUGUUUUGCUUUGCUUUUAAAUAUACAAGGGGUUCUUCUUUAAAUAGAGGAAAAGGUUAAUCCUCUCCAGCAGGAUGCCUGGAAUUCUCGGGUGCCAA` is recorded as 0.626.
For `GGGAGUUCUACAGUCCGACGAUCGGGAGCUAACACCAAGCAACUGGUUCCGUGGGGGAAGGUUUUAGGGAGCUCAGACUGCUGCUUUCAUAGGCAAAGUGUGCCCAUGGGGGCCAGUCAUGGGAACAUGUCAAUGGAAUUCUCGGGUGCCAA`, “RBNS enrichment (R)” read 0.353.
`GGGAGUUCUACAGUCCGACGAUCUCAAGGGCAGCCAGCAGGCCUGGAUGGAGGCCUAGAAAGCCCUUGCCUUCCUUCCUCCCACUUCUUUCUCCAGGCCUGGUUAACUCUUCCGUUGUCAGCUUCUCCCCCUUUGGAAUUCUCGGGUGCCAA`: “RBNS enrichment (R)” 0.785.
For `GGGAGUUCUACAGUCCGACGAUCACUUCCUGUGGUGACAGACUCUUCCAUUUCAGACUGGUUUUAACUUAUCCCAGCUUUACAAAAACUCUUCAUGUGAAUCUUAACUUGCAAAAGGAGAAAGAUAAAAUACAUGGAAUUCUCGGGUGCCAA`, “RBNS enrichment (R)” read 0.369.
For `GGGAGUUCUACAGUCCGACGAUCGAGGCAGGAGAAUCGCUUGAACCUGGGAAGUGGAGGUUGAGUGAGCCGGGACCGUGCCAUUGUACUCCAGCCUGGGUGACAGAGCGAGAUUCCGUCUCAAAAAAAAAAAAUGGAAUUCUCGGGUGCCAA`, “RBNS enrichment (R)” read 0.391.
For `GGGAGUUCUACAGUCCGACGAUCAAAAUUCAGAGAUGAGAUCUUAACACAGCUUCACUCAGGAAGAGACUCACAUGACAGAGCAACUCUGAAUGCAAAGUGACAUCUUCACAAAUGCCAUGGCCAUUGCUGACUGGAAUUCUCGGGUGCCAA`, “RBNS enrichment (R)” read 0.425.
Under “RBNS enrichment (R)”, `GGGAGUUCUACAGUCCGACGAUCUUGGCCCUGCAGGCCAGCUGUUUUAAUAAAGUGGGCACAUUCCCUCAUUUGGUGCCUUUUGUUAGGACUCUGUUGUCAUUCAUUUCAUUAGGUGACUUGUGGGCACUGUCUGGAAUUCUCGGGUGCCAA` is recorded as 0.737.

Block 3 — technique: protein-binding microarray; molecule type: double-stranded DNA, one strand shown; matrix: in vitro; concentration: 2200 nM top; notes: 60-bp whole probe; with: salmon DNA 0.4 mg/ml; relative to: random background probes; direction: higher = stronger binding; all sequences stand within: GCCTAGCAC … GTCTTGATTCGCTTGACGCTGCTG
Target: Interferon regulatory factor 7, full length, phosphomimetic (IRF7, Homo sapiens, UniProt Q92985, residues 1-503, S471D/S472D/S475D/S476D/S477D/S483D/S484D/S487D)
Sequence of UniProt Q92985 (whole entry, unmodified, looked up): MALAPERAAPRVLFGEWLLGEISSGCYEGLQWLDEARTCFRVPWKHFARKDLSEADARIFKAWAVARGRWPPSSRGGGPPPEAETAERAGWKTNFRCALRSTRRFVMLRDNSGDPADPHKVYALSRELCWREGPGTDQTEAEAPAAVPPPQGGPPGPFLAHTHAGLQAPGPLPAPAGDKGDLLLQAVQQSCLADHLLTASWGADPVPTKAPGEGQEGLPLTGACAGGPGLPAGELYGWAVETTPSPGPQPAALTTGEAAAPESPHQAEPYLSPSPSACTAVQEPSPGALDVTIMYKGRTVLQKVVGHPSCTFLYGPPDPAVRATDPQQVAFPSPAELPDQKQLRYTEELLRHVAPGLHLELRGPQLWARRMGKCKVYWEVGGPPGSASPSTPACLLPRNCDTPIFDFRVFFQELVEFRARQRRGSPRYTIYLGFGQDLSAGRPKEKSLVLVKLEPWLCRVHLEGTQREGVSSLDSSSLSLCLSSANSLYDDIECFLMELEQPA
`CGTAAGCAAAAATGATTGGTGTGCTAG`: “fitted relative affinity” -0.431 z-score.
For `GACCGTATCGGTATCGGGACGTGCTAG`, “fitted relative affinity” read 0.509 z-score.
`TTAGGACGGGGTCTCGGTTAGTGCTAG`: “fitted relative affinity” -0.298 z-score.
For `GACTAACTGAGTTTCGAGACGTGCTAG`, “fitted relative affinity” read 2.09 z-score.
For `TCAATCTTCAAGACTCATACTGTGCTA`, “fitted relative affinity” read 0.289 z-score.
`GCCGGTTTCGGGTATCGGGACGTGCTA` — result for “fitted relative affinity”: 7.42 z-score.
Under “fitted relative affinity”, `TCATGTATATATTTTAAACTGTGCTAG` is recorded as 0.527 z-score.
`TTTGTAATCGAAATCTTCATGTGCTAG` — result for “fitted relative affinity”: 0.701 z-score.
Under “fitted relative affinity”, `TTAGGACTGAGGACTGGGTTAGTGCTA` is recorded as -0.828 z-score.
For `GACGAACTGCTTCTCCTGACGTGCTAG`, “fitted relative affinity” read 0.694 z-score.
For `GACGATCTCTGACTGGAGACGTGCTAG`, “fitted relative affinity” read 0.0179 z-score.
For `TTTTTTTTTTTTTTTTGGAAGTGCTAG`, “fitted relative affinity” read 1.85 z-score.
`ATAGAACTGGGGTTTCGATTAGTGCTA`: “fitted relative affinity” 2.69 z-score.
`GCTCCAGGAAGCCTTGCCTGGTGCTAG`: “fitted relative affinity” -0.668 z-score.
`TTAGGACTGGTGACTGGGTTAGTGCTA` — result for “fitted relative affinity”: -0.928 z-score.
Under “fitted relative affinity”, `CACGGACTGCTTCTCCTGACGTGCTAG` is recorded as 0.354 z-score.
Under “fitted relative affinity”, `TTAGGACTGGACTAGCGGTTAGTGCTA` is recorded as -0.868 z-score.
Under “fitted relative affinity”, `GACGGTATCCTTATCCTGAAGTGCTAG` is recorded as 0.715 z-score.
Under “fitted relative affinity”, `TTAGGTTTCCTTCTCCTATAGTGCTAG` is recorded as 2.76 z-score.

Block 4 — technique: RNA Bind-n-Seq; molecule type: RNA; matrix: in vitro; concentration: 1 µM; notes: whole 134-nt RNA, ends assumed; with: 150 mM KCl; relative to: input library; direction: higher = stronger binding
Target: Ras GTPase-activating protein-binding protein 1, C-terminal RGG region (G3BP1, Homo sapiens, UniProt Q13283)
Sequence of UniProt Q13283 (whole entry, looked up): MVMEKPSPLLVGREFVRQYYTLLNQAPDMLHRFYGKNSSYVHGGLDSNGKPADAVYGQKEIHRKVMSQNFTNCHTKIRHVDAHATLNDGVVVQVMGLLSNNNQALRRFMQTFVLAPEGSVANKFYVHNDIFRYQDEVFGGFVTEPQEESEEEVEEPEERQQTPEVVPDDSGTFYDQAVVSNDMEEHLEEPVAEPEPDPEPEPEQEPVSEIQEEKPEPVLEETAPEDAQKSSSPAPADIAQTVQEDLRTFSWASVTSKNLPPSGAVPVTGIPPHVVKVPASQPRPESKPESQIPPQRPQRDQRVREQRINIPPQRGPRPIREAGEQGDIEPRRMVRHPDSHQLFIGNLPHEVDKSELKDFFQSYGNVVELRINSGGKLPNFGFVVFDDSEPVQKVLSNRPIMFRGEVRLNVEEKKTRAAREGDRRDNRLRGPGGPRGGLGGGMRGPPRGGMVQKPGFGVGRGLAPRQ
`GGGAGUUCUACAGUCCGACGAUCUCCUGUGCUACACAUCGUAUGUACCGAAUCGGGGCCCCCGGGGCCCCCGGGCCCCCGGGAAAGUAUUAUGUUACGCCGUUCGGAUCUGCAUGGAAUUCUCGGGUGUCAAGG` gave a log2 enrichment of -2.14.
For `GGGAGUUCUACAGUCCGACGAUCAAGUCCUGUGCUACACAUCGUAUGUACCGAAUCGGAAAAAGGAAAAAAAGGAAAGGAAAGUAUUAUGUUACGCCGUUCGGAUCUGCACUUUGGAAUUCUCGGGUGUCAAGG`, the log2 enrichment was -2.21.
The log2 enrichment of `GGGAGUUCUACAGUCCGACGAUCCACAGACAACACGCACCCACACAGACACAGAGGGAAGGGGUUGGGAUGGGGACAGGGUGCACAGCAGGGCGGGGUAGAAACCCAGCCCCUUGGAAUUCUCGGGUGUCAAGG` is reported as -0.0442.
For `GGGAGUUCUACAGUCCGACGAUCUUGCGCCUGUCCCGGGUGAAGUGUGUCGGCCUCUCCGCACGCACCACGGAGACCAGCAGUGCAGUCAUGUGCCUGGACCUUGCAGCUUCCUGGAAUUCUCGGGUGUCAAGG`, the log2 enrichment was 0.381.
With `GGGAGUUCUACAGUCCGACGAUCCUGUGCUACACAUCGUAUGUACCGAAUCGGGGAAAAAAAGGGGAAAAAAAGGGGAAAGGGGAAAGUAUUAUGUUACGCCGUUCGGAUCUGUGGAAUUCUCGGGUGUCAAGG` the log2 enrichment was 0.0271.
`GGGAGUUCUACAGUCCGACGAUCUAACUUUAGAGGAGGAUCUGAUGGAUAUGGCAGUGGACGUGGAUUUGGGGAUGGCUAUAAUGGGUAUGGAGGAGGACCUGCAGGUGGCAAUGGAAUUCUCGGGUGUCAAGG` gave a log2 enrichment of -1.08.
`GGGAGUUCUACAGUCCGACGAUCACCAUGCAGGUGGGCAUCUUUGGGAAGUGGGGCAAGGGGGGGAUAGGGAGGGGGGUUACACUUUGGGAACAGGUGGUCCCAGGUCGUUUCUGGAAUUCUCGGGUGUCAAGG` gave a log2 enrichment of 0.937.
`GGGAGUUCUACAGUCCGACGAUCUGGCCCGGGUGGCAUGCGGGGAGGAAGAGGUGGCCUCAUGGAUCGUGGUGGUCCCGGUGGAAUGUUCAGAGGUGGCCGUGGUGGAGACAGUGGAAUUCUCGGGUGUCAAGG` gave a log2 enrichment of 2.12.
The log2 enrichment of `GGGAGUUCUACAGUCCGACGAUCUGGCCCUGGUGGCAUGCGGGGAGGAAGAGGUGGCCUCAUGGAUCGUGGUGGUACCGGUGGAAUGUUCAGAGGUGGCCGUGGUGGAGACAGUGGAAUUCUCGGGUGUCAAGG` is reported as 0.377.

For quick reference, copied from above (block 3):
For `GACGAACTGCTTCTCCTGACGTGCTAG`, “fitted relative affinity” read 0.694 z-score.
Under “fitted relative affinity”, `TCATGTATATATTTTAAACTGTGCTAG` is recorded as 0.527 z-score.
Under “fitted relative affinity”, `TTAGGTTTCCTTCTCCTATAGTGCTAG` is recorded as 2.76 z-score.
For `GACCGTATCGGTATCGGGACGTGCTAG`, “fitted relative affinity” read 0.509 z-score.
For `TTTTTTTTTTTTTTTTGGAAGTGCTAG`, “fitted relative affinity” read 1.85 z-score.
Under “fitted relative affinity”, `GACGGTATCCTTATCCTGAAGTGCTAG` is recorded as 0.715 z-score.
